Measurements collected from several papers.
Parts stem from different laboratories: compare values within a part only.

Sample 1
Target: Cellular tumor antigen p53, full length (TP53, Homo sapiens, UniProt P04637, residues 1-393)
Method: protein-binding microarray
Molecule type: hairpin DNA
Matrix: in vitro
Tested at: not given
Notes: whole hairpin DNA, median over replicate spots
Relative to: not given
Direction: higher = stronger binding
Sequence	median fluorescence
CCAGACGTGGTGGCATGCCTTCCTAGGCATGCCACCACGTCTGGACACTC	8740 a.u.
CCACACGTTGTGGCATGCCTTCCTAGGCATGCCACAACGTGTGGACACTC	7960 a.u.
CGGACATGCCCGGGCATGTCTCCTGACATGCCCGGGCATGTCCGACACTC (5mC at 11)	21300 a.u.
CGGACATGCCCGCGCATGTCTCCTGACATGCGCGGGCATGTCCGACACTC	12500 a.u.
CGGACATCGCCGGGCATGTCTCCTGACATGCCCGGCGATGTCCGACACTC	11700 a.u.
CGGACATGCCCGCGCATGTCTCCTGACATGCGCGGGCATGTCCGACACTC (5mC at 13)	13800 a.u.
CCACACGTCGTGGCATGCCTTCCTAGGCATGCCACGACGTGTGGACACTC	7520 a.u.
CGGACATGCCCGGTCATGTCTCCTGACATGACCGGGCATGTCCGACACTC	13700 a.u.
CGGACGTGCCCGGGCATGTCTCCTGACATGCCCGGGCACGTCCGACACTC (5mC at 5 39)	17900 a.u.
CCACACGTGGTGACATGCCTTCCTAGGCATGTCACCACGTGTGGACACTC	8370 a.u.
CCACACGCGGTGGCATGCCTTCCTAGGCATGCCACCGCGTGTGGACACTC (5mC at 36)	6820 a.u.
CCACACGTGCTGGCATGCCTTCCTAGGCATGCCAGCACGTGTGGACACTC	7550 a.u.

Sample 2
Target: Interferon regulatory factor 3, full length, phosphomimetic (IRF3, Homo sapiens, UniProt Q14653, residues 1-427, S386D/S396D/S398D/S402D/T404D/S405D)
UniProt Q14653, sequence (whole entry, unmodified, looked up): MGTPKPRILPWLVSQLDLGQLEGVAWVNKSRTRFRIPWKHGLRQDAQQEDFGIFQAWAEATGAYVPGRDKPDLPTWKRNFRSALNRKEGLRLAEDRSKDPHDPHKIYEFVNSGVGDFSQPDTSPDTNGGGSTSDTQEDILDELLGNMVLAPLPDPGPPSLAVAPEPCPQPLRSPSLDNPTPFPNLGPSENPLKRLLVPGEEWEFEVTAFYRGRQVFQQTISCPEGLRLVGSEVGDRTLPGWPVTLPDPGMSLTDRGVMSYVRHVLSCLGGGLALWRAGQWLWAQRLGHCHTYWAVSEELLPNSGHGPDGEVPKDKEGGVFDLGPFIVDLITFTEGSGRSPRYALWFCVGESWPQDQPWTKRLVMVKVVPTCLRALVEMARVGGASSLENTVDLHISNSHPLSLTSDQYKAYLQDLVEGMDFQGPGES
Method: protein-binding microarray
Molecule type: double-stranded DNA, one strand shown
Matrix: in vitro
Tested at: 2540 nM top
Notes: 60-bp whole probe
Together with: salmon DNA 0.4 mg/ml
Relative to: random background probes
Direction: higher = stronger binding
All sequences stand within: GCCTAGCAC … GTCTTGATTCGCTTGACGCTGCTG
Sequence	fitted relative affinity
GACGGACAGGACACTGGGGACGTGCTA	-0.649 z-score
TTAGATATCAGACTGGCTTAGTGCTAG	0.05 z-score
TCAATCCTATATCTGAAACTGTGCTAG	0.763 z-score
GACGTTCTCAGTATCGAGACGTGCTAG	1.51 z-score
GACGGACTGGGGACTAGGGACGTGCTA	-0.72 z-score
GACGGTTACCTTCTCCTGACGTGCTAG	5.56 z-score
TCCCTTTCAGTTTTCCTATGGTGCTAG	5.2 z-score
TCACTTCTGGACTGTTTGACTGTGCTA	0.841 z-score
TTAGGTTTCCTCTCCCTTTAGTGCTAG	3.98 z-score
ACTAGTTTCCATTTTCAGAAGTGCTAG	9.85 z-score
CACTAGTTTCTTTTCTTTTCGTGCTAG	5.97 z-score
GAAGGTATCGACTATCGGGACGTGCTA	0.302 z-score
TTAGAACTGGGGTAGCGATTAGTGCTA	-0.945 z-score
TCATATCCCTAATCTCAGACTGTGCTA	1.81 z-score
GACGCTCTCAGTCTCGAGACGTGCTAG	0.431 z-score
GACGGTCTGGGTATCGGGACGTGCTAG	-0.0843 z-score
GACGGTCTCAGTATCGGGACGTGCTAG	1.73 z-score
GACGAACTGGGGCATCGAGACGTGCTA	-0.669 z-score
TTAGGTTCCCTTTTCCTTTGGTGCTAG	7.46 z-score
GACGGTATCGTTATCGGGACGTGCTAG	3.3 z-score
GACGGTATCCTTATCGTGACGTGCTAG	5.15 z-score
TGTCCTGTCTACATGGGTGTGTGCTAG	1.21 z-score
TCAAGTTTTACTTTCTAACTGTGCTAG	3.77 z-score

Sample 3
Target: Sal-like protein 4, full length isoform B (SALL4, Homo sapiens, UniProt Q9UJQ4-2, residues 1-616)
Method: universal PBM
Molecule type: double-stranded DNA, one strand shown
Matrix: in vitro
Tested at: not given
Notes: 8-mer, flanks averaged, mean of replicates
Direction: higher = stronger binding
Sequence	E-score
GGTATAGA	0.142
TACACCCA	0.0216
ACACAGAA	-0.0168
GACCCTGC	-0.171
GACTCAAC	-0.0002
GGTAAGGA	-0.131
AAAATGAA	0.348
GCTAACAC	-0.171
GCCAGTTA	0.019
CAATAGAA	0.162
TGAAGAAA	0.143
CCGGAGTA	-0.188
GAGGCTAA	0.0641
CTCTTTGC	0.0338
CACTCTAC	0.0291
TCGACCGA	-0.181
AGCACACC	-0.227
GTCGTTCA	0.0316
ATCGCGCA	-0.0339
AGTATGGC	-0.143
AAAATGTG	0.16
AACGGGAA	0.142
AAGCTAGA	0.121
CCCTCGGC	-0.363
AGAGACAC	-0.0983

Sample 4
Target: Histone acetyltransferase KAT6A, winged helix 1, GST fusion (KAT6A, Homo sapiens, UniProt Q92794, residues 1-85)
Method: protein binding microarray
Molecule type: double-stranded DNA, one strand shown
Matrix: in vitro
Tested at: not given
Notes: 8-mer, flanks averaged, mean of 2 arrays, mostly near background
Relative to: not given
Direction: higher = stronger binding
Construct (chain): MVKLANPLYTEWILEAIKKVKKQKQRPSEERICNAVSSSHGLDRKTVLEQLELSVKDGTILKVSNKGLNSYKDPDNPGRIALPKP
Sequence	E-score
AGAATGCA	-0.169
ACACGGCG	0.422
CCTGTTCA	-0.254
AAGTGTAG	-0.206
GCATTCGA	0.0241
CAACGACA	-0.113
CAGCCGTA	0.329
CGTGACTC	-0.01
TCCACCGA	0.00296
GCTATTTA	-0.0627
CTCGCTAC	-0.115
GCCAGAGC	-0.0119
CATGACAC	-0.00552
AAAGGTTC	-0.227
CAAGGCAC	-0.273
AAGGCGAA	0.0104
ACTCCACC	-0.115
CCGAAAAG	-0.0838
CGAGACTA	-0.0706
ATGTCTGC	-0.0271
AATGGGAT	-0.133
CTCCGTGC	0.207
ACTTTTAT	-0.165
ATGGTGGC	-0.0439
ACGGTACT	0.243

For quick reference, copied from above (sample 1):
Sequence	median fluorescence
CCACACGTTGTGGCATGCCTTCCTAGGCATGCCACAACGTGTGGACACTC	7960 a.u.
CGGACATGCCCGGGCATGTCTCCTGACATGCCCGGGCATGTCCGACACTC (5mC at 11)	21300 a.u.
CGGACATGCCCGCGCATGTCTCCTGACATGCGCGGGCATGTCCGACACTC	12500 a.u.
CGGACATCGCCGGGCATGTCTCCTGACATGCCCGGCGATGTCCGACACTC	11700 a.u.
CGGACATGCCCGCGCATGTCTCCTGACATGCGCGGGCATGTCCGACACTC (5mC at 13)	13800 a.u.
CCACACGTCGTGGCATGCCTTCCTAGGCATGCCACGACGTGTGGACACTC	7520 a.u.
CGGACATGCCCGGTCATGTCTCCTGACATGACCGGGCATGTCCGACACTC	13700 a.u.
